# Results of several laboratories.
# Route: intravenous
test system,setting,Vd,SMILES
"female Sprague-Dawley rat, plasma",20 mg/kg,118 L/kg,Cc1cc(/C=C2\CN(C(C)C)C/C(=C\c3cc(C)c(O)c(C)c3)C2=O)cc(C)c1O
"rat, plasma",5 mg/kg,54.6 L/kg,N[C@H](COc1ccccc1C(F)(F)F)c1ccccc1
"male Sprague-Dawley rat, plasma",1 mg/kg,0.57 L/kg,COc1ccc(COc2c(OC)ccc3c2C[C@@H](C(=O)O)N(c2nc4ccc(F)cc4o2)C3)cn1
"Sprague-Dawley rat, plasma",,0.98 L/kg,C=C(C)C(=O)Nc1ccc(-c2c(-c3ccc(Oc4nccc(C)n4)cc3)c3c(N)ncnc3n2C)cc1
"male Sprague-Dawley rat, plasma","1 mg/kg, single dose",1.81 L/kg,Cc1ccc(OCC(=O)N(Cc2cccs2)c2ccn[nH]2)cc1
"rat, plasma","1 mg/kg, single dose",1.8 L/kg,CC1(C)CNC(=O)c2ccccc21
"rat, plasma",2 mg/kg,0.371 L/kg,CCCN(c1ccc(C(=O)NCCC(=O)O)cc1)S(=O)(=O)c1cc(C)c(-c2ccc(C(C)(C)C)cc2)c(C)c1
"female Sprague-Dawley rat, plasma",1 mg/kg,68.5 L/kg,CSCOC1C(=O)C2(C)C(OCSC)CC3OCC3(OC(C)=O)C2C(OC(=O)c2ccccc2)C2(O)CC(OC(=O)C(O)C(C=C(C)C)NC(=O)OC(C)(C)C)C(C)=C1C2(C)C (centres unmarked)
"Sprague-Dawley rat, plasma",10 mg/kg,3.48 L,CC12CC3CC(C)(C1)CC(NC(=O)Nc1ccc(C(=O)N4CCCC(C(N)=O)C4)cc1)(C3)C2 (centres unmarked)
"male Sprague-Dawley rat, plasma","5 mg/kg, single dose",14.9 L/kg,O=C(c1ccccc1)c1cc(O)c(-c2cc(Cl)cc(Cl)c2)c(O)c1
"rat, plasma","10 mg/kg, single dose",4.6 L/kg,COc1ccc(S(=O)(=O)N2CCc3ccccc3C2)cc1N1CCN(C(=O)c2ccc(F)cc2C(F)(F)F)CC1
"Sprague-Dawley rat, blood",2 mg/kg,1.38 L/kg,COC(=O)c1ccc2c(c1)NC(=O)/C2=C(\Nc1ccc2c(c1)CCN2C(=O)CN1CCOCC1)c1ccccc1
"male Sprague-Dawley rat, plasma",1 mg/kg,0.37 L/kg,COc1ccc(COc2c(OC)ccc3c2C[C@@H](C(=O)O)N(c2nc4ccc(F)cc4o2)C3)cc1
"male Sprague-Dawley rat, plasma",0.9 mg/kg,2 L/kg,Cc1cc(N2CCC(C#N)(C3(C)CC3)C2=O)cc(C(=O)NCc2cc(F)cc(-c3cnn(C)c3)c2)n1 (racemic)

# A few entries again:
test system,setting,Vd,SMILES
"female Sprague-Dawley rat, plasma",1 mg/kg,68.5 L/kg,CSCOC1C(=O)C2(C)C(OCSC)CC3OCC3(OC(C)=O)C2C(OC(=O)c2ccccc2)C2(O)CC(OC(=O)C(O)C(C=C(C)C)NC(=O)OC(C)(C)C)C(C)=C1C2(C)C (centres unmarked)
"Sprague-Dawley rat, plasma",10 mg/kg,3.48 L,CC12CC3CC(C)(C1)CC(NC(=O)Nc1ccc(C(=O)N4CCCC(C(N)=O)C4)cc1)(C3)C2 (centres unmarked)
